Results of several laboratories.
A part holds a random share of what one study measured. Values joined by “and” are separate records of one study, mostly repeats; a detail may differ.
Sequence of UniProt P29323 (whole entry, looked up): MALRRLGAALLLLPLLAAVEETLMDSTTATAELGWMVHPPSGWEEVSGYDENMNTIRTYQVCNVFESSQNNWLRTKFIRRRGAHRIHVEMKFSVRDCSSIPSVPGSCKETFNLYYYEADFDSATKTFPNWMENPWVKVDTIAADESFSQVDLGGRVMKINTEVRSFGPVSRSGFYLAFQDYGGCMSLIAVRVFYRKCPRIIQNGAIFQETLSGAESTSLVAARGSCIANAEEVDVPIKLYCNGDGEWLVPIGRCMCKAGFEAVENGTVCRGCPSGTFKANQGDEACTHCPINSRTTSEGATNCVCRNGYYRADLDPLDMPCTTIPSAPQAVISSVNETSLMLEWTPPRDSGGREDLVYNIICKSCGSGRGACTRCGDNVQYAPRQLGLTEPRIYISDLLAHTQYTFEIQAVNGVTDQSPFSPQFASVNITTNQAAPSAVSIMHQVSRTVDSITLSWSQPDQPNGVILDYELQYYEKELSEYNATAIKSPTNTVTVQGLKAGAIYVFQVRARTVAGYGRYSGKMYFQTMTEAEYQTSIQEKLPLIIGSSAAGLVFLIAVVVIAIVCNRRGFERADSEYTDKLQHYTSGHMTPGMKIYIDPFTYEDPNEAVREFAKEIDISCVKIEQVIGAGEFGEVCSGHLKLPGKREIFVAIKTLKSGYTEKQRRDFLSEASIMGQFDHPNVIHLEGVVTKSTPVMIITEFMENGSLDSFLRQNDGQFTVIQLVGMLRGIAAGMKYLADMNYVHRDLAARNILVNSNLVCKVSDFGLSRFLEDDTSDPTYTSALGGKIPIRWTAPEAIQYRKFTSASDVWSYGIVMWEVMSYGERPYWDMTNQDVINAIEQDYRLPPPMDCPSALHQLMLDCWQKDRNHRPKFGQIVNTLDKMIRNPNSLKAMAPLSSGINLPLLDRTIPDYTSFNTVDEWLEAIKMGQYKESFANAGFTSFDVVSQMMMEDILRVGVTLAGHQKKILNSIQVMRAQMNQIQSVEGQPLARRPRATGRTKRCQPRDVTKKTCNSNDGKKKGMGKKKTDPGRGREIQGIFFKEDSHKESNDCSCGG
Sequence of UniProt O00506 (whole entry, looked up): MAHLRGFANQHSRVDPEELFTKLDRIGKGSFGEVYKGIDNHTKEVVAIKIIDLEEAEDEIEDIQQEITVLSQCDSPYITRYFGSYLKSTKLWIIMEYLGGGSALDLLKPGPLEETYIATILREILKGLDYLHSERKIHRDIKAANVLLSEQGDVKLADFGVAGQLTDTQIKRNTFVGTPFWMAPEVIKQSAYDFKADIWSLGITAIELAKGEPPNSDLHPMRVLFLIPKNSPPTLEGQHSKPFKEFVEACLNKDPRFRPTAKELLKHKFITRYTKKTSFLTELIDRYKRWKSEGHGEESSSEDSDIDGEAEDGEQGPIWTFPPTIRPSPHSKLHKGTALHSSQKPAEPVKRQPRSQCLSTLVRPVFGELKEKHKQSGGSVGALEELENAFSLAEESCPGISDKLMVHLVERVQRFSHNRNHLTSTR
Sequence of UniProt Q06187 (whole entry, looked up): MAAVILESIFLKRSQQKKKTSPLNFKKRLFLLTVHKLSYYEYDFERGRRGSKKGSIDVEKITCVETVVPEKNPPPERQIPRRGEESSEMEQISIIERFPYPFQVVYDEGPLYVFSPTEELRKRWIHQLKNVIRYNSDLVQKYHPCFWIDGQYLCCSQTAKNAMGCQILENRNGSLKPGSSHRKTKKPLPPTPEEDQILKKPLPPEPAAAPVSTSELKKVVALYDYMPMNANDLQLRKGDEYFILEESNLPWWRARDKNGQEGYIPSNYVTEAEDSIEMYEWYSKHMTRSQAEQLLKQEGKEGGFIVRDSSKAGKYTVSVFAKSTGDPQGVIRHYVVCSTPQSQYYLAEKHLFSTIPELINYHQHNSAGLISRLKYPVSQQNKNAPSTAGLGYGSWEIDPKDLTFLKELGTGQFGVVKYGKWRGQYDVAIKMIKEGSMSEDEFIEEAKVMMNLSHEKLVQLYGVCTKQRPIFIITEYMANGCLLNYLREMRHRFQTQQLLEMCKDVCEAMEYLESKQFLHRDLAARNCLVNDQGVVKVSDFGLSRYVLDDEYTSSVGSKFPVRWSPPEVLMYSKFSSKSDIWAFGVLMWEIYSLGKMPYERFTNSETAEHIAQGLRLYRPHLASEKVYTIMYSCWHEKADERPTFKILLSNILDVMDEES
Sequence of UniProt O75914 (whole entry, looked up): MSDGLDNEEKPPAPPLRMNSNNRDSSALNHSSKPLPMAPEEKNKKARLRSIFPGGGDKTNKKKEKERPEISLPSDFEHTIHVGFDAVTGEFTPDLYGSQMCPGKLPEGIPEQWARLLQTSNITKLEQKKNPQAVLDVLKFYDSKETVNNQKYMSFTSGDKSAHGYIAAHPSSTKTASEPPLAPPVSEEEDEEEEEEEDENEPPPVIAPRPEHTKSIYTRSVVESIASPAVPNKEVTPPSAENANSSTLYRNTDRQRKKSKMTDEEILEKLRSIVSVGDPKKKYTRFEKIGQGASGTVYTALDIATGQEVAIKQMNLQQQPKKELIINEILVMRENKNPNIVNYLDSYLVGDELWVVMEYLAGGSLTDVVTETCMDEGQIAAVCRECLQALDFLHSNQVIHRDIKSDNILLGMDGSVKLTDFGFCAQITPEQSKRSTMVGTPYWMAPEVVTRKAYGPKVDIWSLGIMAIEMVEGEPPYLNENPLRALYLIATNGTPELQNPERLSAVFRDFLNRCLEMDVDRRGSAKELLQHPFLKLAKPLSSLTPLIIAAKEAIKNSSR

Series 1 — route: intrathecal
Structure (SMILES): COc1cc(C(=O)OCCCN2CCCN(CCCOC(=O)c3cc(OC)c(OC)c(OCc4ccc([N+](=O)[O-])cc4)c3)CC2)cc(OC)c1OC
| host | dose | time | licking and flinching duration |
| --- | --- | --- | --- |
| male mouse, formalin pain | 100 nmol | 0-10 min | 196 s and 195 s and 152 s and 157 s |
| male mouse, formalin pain | 10 nmol | 0-10 min | 179 s and 237 s and 229 s and 253 s |
| male mouse, formalin pain | 10 nmol | 10-45 min | 184 s and 245 s and 214 s and 314 s |
| female mouse, formalin pain | 10 nmol | 10-45 min | 261 s and 133 s and 166 s and 158 s |

Series 2 — technique: microarray; baseline: untreated
SMILES: COCCCCCCC1CC2C(CCC3(C)C(O)CCC23)c2ccc(O)cc21 (centres unmarked)
| cell line | measured | concentration | log2 fold change |
| --- | --- | --- | --- |
| SK-OV-3 | GADD45A | 10 µM | -0.305 |
| SK-OV-3 | ISG20L1 | 10 µM | 1.09 |
| A549 | ACTA2 | 50 µM | -0.375 |
| A549 | UBB | 10 µM | -0.434 |
| A549 | GADD45A | 50 µM | 4.29 |
| A549 | ISG20L1 | 10 µM | 0.0992 |
| PANC-1 | GZMK | 10 µM | 3.35 |
| A549 | CCL11 | 10 µM | 0 |
| SK-OV-3 | GZMK | 50 µM | 4.11 |
| SK-OV-3 | CCL11 | 10 µM | 0 |

Series 3 — cell line: AsPC-1; technique: in-cell ELISA; notes: individual replicates
Compound: Cc1ncsc1-c1ccc(C(CO)NC(=O)C2CC(O)CN2C(=O)C(NC(=O)c2ccc(COc3c(-c4c(C)c(F)cc5[nH]ncc45)c(C4CC4)cc4c(N5CC6CC5CN6)nc(OC5CCOCC5)nc34)cc2)C(C)C)cc1 (centres unmarked)
| concentration | phospho-ERK1/2 level |
| --- | --- |
| 3 nM | 92% and 96.8% and 96.2% and 91% and 95.3% |
| 3 µM | 10.4% and 6.48% and 4.38% and 8.09% and 11.2% and 7.98% |
| 300 pM | 93.3% and 97.6% and 94.8% and 92.3% and 95.9% |
| 10 µM | 12% and 9.67% and 4.58% and 25.4% and 12.4% and 7.44% |
| 100 nM | 29.1% and 33.7% and 47.3% and 34.8% and 58.3% and 31.4% |
| 1 µM | 4.89% and 5.62% and 4.53% and 10.7% and 2.71% |
| 30 nM | 81.6% and 86.2% and 72.4% and 85.6% and 76.6% and 79% |

Series 4 — organism: Arabidopsis thaliana; strain: Col-0
Compound: CCCN1C(=O)C(O)(C(=O)O)Oc2cc(F)ccc21 (centres unmarked)
| concentration | notes | hypocotyl length |
| --- | --- | --- |
| 100 µg/mL | seed germination, single repetition | 0.77 cm and 0.74 cm and 0.78 cm and 0.75 cm and 0.76 cm |
| 50 µg/mL | seed germination, repetition mean | 1.26 cm |
| 25 µg/mL | seed germination, repetition mean | 1.72 cm |
| 50 µg/mL | seed germination, single repetition | 1.26 cm and 1.25 cm |
| 12.5 µg/mL | seed germination, repetition mean | 1.87 cm |
| 12.5 µg/mL | seed germination, single repetition | 1.88 cm and 1.85 cm and 1.76 cm and 1.87 cm and 1.9 cm |
| 25 µg/mL | seed germination, single repetition | 1.7 cm and 1.8 cm and 1.67 cm and 1.69 cm and 1.77 cm |
| 3.125 µg/mL | seed germination, repetition mean | 2.29 cm |

Series 5
Structure (SMILES): CNc1ncc2cc(-c3cc(OC)cc(OC)c3Cl)c(=O)n(CCc3ccc(NC(=O)C(C#N)=CC(C)(C)N4CCOCC4)cc3)c2n1
| target | observed | concentration | notes | inhibition [%] |
| --- | --- | --- | --- | --- |
| CDK2 (Homo sapiens, UniProt P24941) | kinase activity | 0.1 µM | – | -1 |
| PDPK1 (Homo sapiens, UniProt O15530) | kinase activity | 0.1 µM | – | -3 |
| RET (Homo sapiens, UniProt P07949) | kinase activity | 0.1 µM | – | 11 |
| RPS6KA2 (Homo sapiens, UniProt Q15349) | kinase activity | 1 µM | – | -1 |
| SIK2 (Homo sapiens, UniProt Q9H0K1) | kinase activity | 1 µM | – | 6 |
| PAK3 (Homo sapiens, UniProt O75914) | kinase activity | 0.1 µM | – | -2 |
| STK4 (Homo sapiens, UniProt Q13043) | kinase activity | 1 µM | – | 5 |
| STK16 (Homo sapiens, UniProt O75716) | kinase activity | 0.1 µM | – | 3 |
| AKT3 (Homo sapiens, UniProt Q9Y243) | kinase activity | 1 µM | – | 2 |
| EPHB2 (Homo sapiens, UniProt P29323) | kinase activity | 1 µM | – | 1 |
| MAPK11 (Homo sapiens, UniProt Q15759) | kinase activity | 0.1 µM | – | -1 |
| CDK7 (Homo sapiens, UniProt P50613) | kinase activity | 1 µM | – | 0 |
| FLT1 (Homo sapiens, UniProt P17948) | kinase activity | 0.1 µM | – | 40 |
| CAMK2D (Homo sapiens, UniProt Q13557) | kinase activity | 0.1 µM | – | -1 |
| SYK (Homo sapiens, UniProt P43405) | kinase activity | 1 µM | – | 1 |
| NDRG1 | – | 1 µM | mean | -5 |
| PASK (Homo sapiens, UniProt Q96RG2) | kinase activity | 1 µM | – | 4 |
| CLK1 (Homo sapiens, UniProt P49759) | kinase activity | 1 µM | – | -4 |
| PRKCZ (Homo sapiens, UniProt Q05513) | kinase activity | 1 µM | – | -1 |
| DYRK2 (Homo sapiens, UniProt Q92630) | kinase activity | 1 µM | – | 0 |
| STK25 (Homo sapiens, UniProt O00506) | kinase activity | 0.1 µM | – | 2 |

Series 6 — action: inhibitor; technique: FLIPR membrane potential; cells: CHO-BC cells; concentration: 0.01 µM; notes: unit not given; baseline: uninhibited cells
Target: Sodium-dependent neutral amino acid transporter B(0)AT1 (SLC6A19, Homo sapiens, UniProt Q695T7)
Sequence of UniProt Q695T7 (whole entry, looked up): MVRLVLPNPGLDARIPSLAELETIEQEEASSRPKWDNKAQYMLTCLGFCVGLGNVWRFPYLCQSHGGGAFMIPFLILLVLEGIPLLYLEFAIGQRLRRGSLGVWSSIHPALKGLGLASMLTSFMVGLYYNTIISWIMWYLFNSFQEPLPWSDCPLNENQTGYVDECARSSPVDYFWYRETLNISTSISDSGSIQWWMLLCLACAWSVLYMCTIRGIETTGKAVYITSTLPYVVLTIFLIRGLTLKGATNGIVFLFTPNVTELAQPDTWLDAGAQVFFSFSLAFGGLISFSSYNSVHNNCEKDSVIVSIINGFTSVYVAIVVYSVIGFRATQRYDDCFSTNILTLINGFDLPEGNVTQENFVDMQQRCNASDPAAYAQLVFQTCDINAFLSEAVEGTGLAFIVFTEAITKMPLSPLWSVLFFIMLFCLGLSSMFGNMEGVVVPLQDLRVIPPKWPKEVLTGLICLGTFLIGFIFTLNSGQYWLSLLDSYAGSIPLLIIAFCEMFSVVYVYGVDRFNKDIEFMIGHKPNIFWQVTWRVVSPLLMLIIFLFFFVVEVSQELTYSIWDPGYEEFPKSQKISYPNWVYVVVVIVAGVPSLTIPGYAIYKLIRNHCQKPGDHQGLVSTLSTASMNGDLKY
| SMILES | remaining transport activity |
| --- | --- |
| CCNC(=O)COc1ccc(I)c(C)c1 | 0.729 |
| CCCNC(=O)COc1ccc(I)c(C)c1 | 0.829 |
| CCNC(=O)COc1ccc(Br)c(C)c1 | 0.89 |
| Cc1cc(NCC(=O)NC(C)C)cc(C)c1Cl | 1.04 |
| Cc1cc(NCC(=O)NC(C)C)ccc1Br | 0.897 |

Series 7 — cell line: U-87 MG; concentration: concentration not given; baseline: DMSO
SMILES: CCN1/C(=C/C=C2\CCCC(/C=C/C3=[N+](CC)c4ccccc4C3(C)C)=C2NCCCCCCCCN2CCC(Nc3nc4ccccc4n3Cc3ccc(F)cc3)CC2)C(C)(C)c2ccccc21
| measured | log2 fold change |
| --- | --- |
| LARP6 mRNA | 1.54 |
| FAM180A mRNA | -1.98 |
| CYP26B1 mRNA | -2.95 |
| SEMA6B mRNA | -2.39 |
| ERLIN2 mRNA | -0.973 |
| SOD2 mRNA | 1.34 |
| AIM2 mRNA | -1.92 |
| PACSIN3 mRNA | -0.834 |
| ADAMTS5 mRNA | 3.6 |
| DNAH10 mRNA | 1.89 |
| PINX1 mRNA | 0.946 |
| MED10 mRNA | 0.922 |
| GPSM2 mRNA | -1.46 |
| MOAP1 mRNA | 1.54 |
| PMVK mRNA | -0.816 |
| VGF mRNA | -1.36 |

Series 8 — concentration: 1 µM
Compound: CC[C@@]1(c2cccc(-c3c(F)cncc3OC)c2)C2=C(Nc3n[nH]cc31)[C@H](F)C(C)(C)CC2=O (single isomer, unassigned)
| target | observed | technique | baseline | remaining binding |
| --- | --- | --- | --- | --- |
| MATK (Homo sapiens, UniProt P42679) | binding | competition with immobilised ligand | – | 24% |
| NTRK3 (Homo sapiens, UniProt Q16288) | kinase binding | KINOMEscan | DMSO control | 88% |
| PTK2B (Homo sapiens, UniProt Q14289) | binding | competition with immobilised ligand | – | 74% |
| NEK5 (Homo sapiens, UniProt Q6P3R8) | binding | competition with immobilised ligand | – | 100% |
| MAPK10 (Homo sapiens, UniProt P53779) | kinase binding | KINOMEscan | DMSO control | 63% |
| BTK (Homo sapiens, UniProt Q06187) | kinase binding | KINOMEscan | DMSO control | 77% |
| PIP4K2B (Homo sapiens, UniProt P78356) | binding | competition with immobilised ligand | – | 100% |
| FES (Homo sapiens, UniProt P07332) | binding | competition with immobilised ligand | – | 100% |
| TGFBR2 (Homo sapiens, UniProt P37173) | binding | competition with immobilised ligand | – | 100% |
| EGFR (Homo sapiens, UniProt P00533, L858R/T790M) | binding | competition with immobilised ligand | – | 76% |
| PIK3CA (Homo sapiens, UniProt P42336, E545K) | binding | competition with immobilised ligand | – | 71% |
| AAK1 (Homo sapiens, UniProt Q2M2I8) | binding | competition with immobilised ligand | – | 87% |
| KIT (Homo sapiens, UniProt P10721, A829P) | binding | competition with immobilised ligand | – | 56% |
| EPHB2 (Homo sapiens, UniProt P29323) | binding | competition with immobilised ligand | – | 100% |
| CDKL3 (Homo sapiens, UniProt Q8IVW4) | kinase binding | KINOMEscan | DMSO control | 100% |
| PRKD3 (Homo sapiens, UniProt O94806) | kinase binding | KINOMEscan | DMSO control | 76% |
| PRKCQ (Homo sapiens, UniProt Q04759) | binding | competition with immobilised ligand | – | 100% |
| BMPR1A (Homo sapiens, UniProt P36894) | kinase binding | KINOMEscan | DMSO control | 100% |

Series 9 — observed: thermal unfolding; technique: differential scanning fluorimetry; concentration: 5.5 µM; direction: higher = more unfolded
Compound: C[C@@H]1CN(c2ccc(-c3cc(C(=O)NCCOCCOCCOCCOCCNC(=O)Cn4cc(-c5[nH]cc(C(=O)N[C@@H](CC(N)=O)c6ccc(F)c(Cl)c6)c5-c5ccc(Cl)cc5F)cn4)ccc3F)cc2NC(=O)c2c[nH]c(=O)cc2C(F)(F)F)C[C@H](C)N1C
DCAF1: DDB1- and CUL4-associated factor 1 (DCAF1, Homo sapiens, UniProt Q9Y4B6)
Sequence of UniProt Q9Y4B6 (whole entry, looked up): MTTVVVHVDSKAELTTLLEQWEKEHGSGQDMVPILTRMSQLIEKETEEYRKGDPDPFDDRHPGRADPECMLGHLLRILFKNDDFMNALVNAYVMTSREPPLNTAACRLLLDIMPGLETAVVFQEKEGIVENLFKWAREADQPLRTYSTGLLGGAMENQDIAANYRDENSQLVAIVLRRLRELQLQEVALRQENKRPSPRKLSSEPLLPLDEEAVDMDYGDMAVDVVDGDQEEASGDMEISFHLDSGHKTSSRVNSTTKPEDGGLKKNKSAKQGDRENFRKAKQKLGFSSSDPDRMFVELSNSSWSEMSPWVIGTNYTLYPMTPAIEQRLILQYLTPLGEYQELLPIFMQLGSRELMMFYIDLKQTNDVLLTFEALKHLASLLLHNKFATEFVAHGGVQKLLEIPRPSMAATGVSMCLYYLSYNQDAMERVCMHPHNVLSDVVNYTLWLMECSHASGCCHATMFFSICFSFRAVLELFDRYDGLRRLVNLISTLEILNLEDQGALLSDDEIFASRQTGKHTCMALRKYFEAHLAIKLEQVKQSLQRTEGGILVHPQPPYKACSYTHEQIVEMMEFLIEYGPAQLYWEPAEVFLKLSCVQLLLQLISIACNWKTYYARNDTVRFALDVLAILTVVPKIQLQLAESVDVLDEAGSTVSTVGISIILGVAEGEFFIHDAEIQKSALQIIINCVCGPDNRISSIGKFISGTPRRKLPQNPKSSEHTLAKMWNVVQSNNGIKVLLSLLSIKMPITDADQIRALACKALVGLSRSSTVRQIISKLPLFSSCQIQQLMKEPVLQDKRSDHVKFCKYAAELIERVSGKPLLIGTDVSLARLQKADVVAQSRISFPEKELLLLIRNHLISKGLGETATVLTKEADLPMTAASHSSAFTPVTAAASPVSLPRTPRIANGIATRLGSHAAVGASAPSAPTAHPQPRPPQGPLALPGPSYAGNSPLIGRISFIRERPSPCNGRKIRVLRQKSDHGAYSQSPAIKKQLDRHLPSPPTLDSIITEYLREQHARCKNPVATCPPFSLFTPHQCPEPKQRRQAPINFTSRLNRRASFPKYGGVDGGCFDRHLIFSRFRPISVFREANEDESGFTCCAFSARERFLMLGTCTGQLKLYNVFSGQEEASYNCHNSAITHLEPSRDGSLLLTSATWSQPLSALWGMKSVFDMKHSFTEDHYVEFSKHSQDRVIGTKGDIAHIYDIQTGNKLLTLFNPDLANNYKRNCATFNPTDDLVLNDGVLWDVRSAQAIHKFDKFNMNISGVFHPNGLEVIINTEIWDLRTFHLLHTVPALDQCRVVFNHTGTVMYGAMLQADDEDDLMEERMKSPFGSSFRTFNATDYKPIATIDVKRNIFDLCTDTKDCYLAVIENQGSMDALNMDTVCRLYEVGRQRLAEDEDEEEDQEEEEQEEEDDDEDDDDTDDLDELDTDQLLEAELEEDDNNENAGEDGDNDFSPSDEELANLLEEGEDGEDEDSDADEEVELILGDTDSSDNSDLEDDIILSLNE
WDR5: WD repeat-containing protein 5 (WDR5, Homo sapiens, UniProt P61964)
| target | temperature | SYPRO Orange fluorescence [a.u.] |
| --- | --- | --- |
| DCAF1 | 39.6 °C | 10100 |
| DCAF1 | 37.6 °C | 9540 |
| DCAF1 | 56.21 °C | 22400 |
| DCAF1 | 55.41 °C | 20300 |
| DCAF1 | 29.6 °C | 8170 |
| DCAF1 | 36.8 °C | 9360 |
| WDR5 | 46.8 °C | 14300 |
| WDR5 | 77.21 °C | 15200 |
| DCAF1 | 46.8 °C | 13100 |
| DCAF1 | 39.8 °C | 10200 |
| WDR5 | 38.4 °C | 14400 |

Series 10 — technique: KINOMEscan; concentration: 1000 nM; baseline: control
SMILES: Cc1ccc(O)c(C)c1-c1cnc2[nH]c(-c3cnc(N4CCC5(CC4)CC(N4CCN(c6ccc(N[C@H]7CCC(=O)NC7=O)cc6F)CC4)CO5)nc3)cc2c1C#N (single isomer, unassigned)
| target | remaining binding [%] |
| --- | --- |
| PIK4CB | 96 |
| FRK | 71 |
| PKMYT1 | 0 |
| WEE1 | 91 |
| CASK | 45 |
| CSF1R | 49 |

Further values, each from its own experiment
| SMILES | technique | host | medium | dose | measurement | result |
| --- | --- | --- | --- | --- | --- | --- |
| Cc1nc(C)c(C=[N+]([O-])C(C)(C)C)nc1C | HPLC-ECD | MPTP mouse model | striatum | 30 mg/kg | striatal dopamine content | 6.65 ng/mg tissue and 5.62 ng/mg tissue and 6.88 ng/mg tissue and 5.76 ng/mg tissue and 7.13 ng/mg tissue and 5.25 ng/mg tissue and 6.36 ng/mg tissue |

Excerpt of the above (series 1):
| host | dose | time | licking and flinching duration |
| --- | --- | --- | --- |
| male mouse, formalin pain | 10 nmol | 10-45 min | 184 s and 245 s and 214 s and 314 s |
| male mouse, formalin pain | 10 nmol | 0-10 min | 179 s and 237 s and 229 s and 253 s |
| male mouse, formalin pain | 100 nmol | 0-10 min | 196 s and 195 s and 152 s and 157 s |
| female mouse, formalin pain | 10 nmol | 10-45 min | 261 s and 133 s and 166 s and 158 s |
